Published values pooled from the literature.
Lines come from different studies, so protocols differ. Values joined by “and” are separate records of one study, mostly repeats; a detail may differ. ± marks the error that the study gave.
T1: RAMP2/CALCR extracellular domain fusion 43-143 (Homo sapiens); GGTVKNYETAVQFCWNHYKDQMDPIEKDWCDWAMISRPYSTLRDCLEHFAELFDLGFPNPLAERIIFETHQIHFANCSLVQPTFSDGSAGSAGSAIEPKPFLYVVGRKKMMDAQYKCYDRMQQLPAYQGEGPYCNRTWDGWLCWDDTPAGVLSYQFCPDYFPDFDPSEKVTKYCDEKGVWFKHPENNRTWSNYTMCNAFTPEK
B1: P4HB ab fragment (Homo sapiens); chain DAPEEEDHVLVLRKSNFAEALAAHKYLLVEFYAPWCGHCKALAPEYAKAAGKLKAEGSEIRLAKVDATEESDLAQQYGVRGYPTIKFFRNGDTASPKEYTAGREADDIVNWLKKRTGPAATTLPDGAAAESLVESSEVAVIGFFKDVESDSAKQFLQAAEAIDDIPFGITSNSDVFSKYQLDKDGVVLFKKFDEGRNNFEGEVTKENLLDFIKHN
B2: ADRM1 265-388 (Homo sapiens, UniProt Q16186); chain SDLQSILATMNVPAGPAGGQQVDLASVLTPEIMAPILANADVQERLLPYLPSGESLPQTADEIQNTLTSPQFQQALGMFSAALASGQLGPLMCQFGLPAEAVEAANKGDVEAFAKAMQNNAKPE
B3: Cid14/Air1 69-684 D298A/D300A (Schizosaccharomyces pombe); chain 1 MVEIGSKKSRNDNDSEGIRDKGGVEISNKNDPYIQFGKADPLEPLEKPDLPEEAIKRGEPTILLGIPKREGRKTNPVHDKAVENNSDFIKFDWNSDEDEDSVSNDKSKNNESLKKSSKNEIPGFMRQRGRFFHEANEKSDSNRKRKRQAYELDSQSCPWHRQYKVEREVSRIFHQDILHFIDYITPTPEEHAVRKTLVSRINQAVLQKWPDVSLYVFGSFETKLYLPTSALALVIISPEHHYRGTKKDMFVLAHHLKKLKLASEVQVITTANVPIIKFVDPLTKVHVDISFNQPGGLKTCLVVNGFMKKYPALRPLVIIIKHFLNMRALNEVFLGGLSSYAIVCLVVSFLQLHPRLSTGSMREEDNFGVLLLEFLELYGKQFYYDAVGIAVHNGGFYFSKKKMGWLKPNQPYLLSIQDPVDFQNDVSKSSRGLLRVKATFANGFDLLTSKLYALASRIEREGVNRVKDFPSILSTILSVDEGVRQHREHMLKCYKNNPVPLEPLVEVDALASIDVDKLPLQDVGLQYVEDESDSDETDAAKDDLFKVNESIETNGHENFQKQALTSTGEQSSSNSRANPSKLFNISSDDSEDEVPIIEDTTASDEESRAKKIRKRF; chain 2 MDMTVSNQKAESDDGSDIDDAALLQKINSLPIDQSITNSVSLEKHDFQGSDDHDSSTDLSDSTLEDVEGSEWADVSRGRYFGSDPSESIVCHNCKGNGHISKDCPHVLCTTCGAIDDHISVRCPWTKKCMNCGLLGHIAARCSEPRKRGPRVCRTCHTDTHTSSTCPLIWRYYVEKEHPVRIDVSEVRKFCYNCASDEHFGDDCTLPSRSNYPESTAFCEANCPSGNDASNKEFFETRRKEFQLERREQNRNQKSSKQRPFH
B4: spdl-1 C-terminal 362-479 (Caenorhabditis elegans, UniProt Q17695); sequence looked up; chain PVVNKDFEHPLLAAPLKTLNNGRPSFFIKPKNVEPMPQLGHSLSSIAVTPQKPAAKFTTRSSIKDDTSEWAERRMKAQAEKKLATPTPRYNYIKLSEPVPKFKPAVLQMPSTSETKEN
B5: Flrt2 35-362 (Mus musculus, UniProt Q8BLU0); chain ACPSVCRCDRNFVYCNERSLTSVPLGIPEGVTVLYLHNNQINNAGFPAELHNVQSVHTVYLYGNQLDEFPMNLPKNVRVLHLQENNIQTISRAALAQLLKLEELHLDDNSISTVGVEDGAFREAISLKLLFLSKNHLSSVPVGLPVDLQELRVDENRIAVISDMAFQNLTSLERLIVDGNLLTNKGIAEGTFSHLTKLKEFSIVRNSLSHPPPDLPGTHLIRLYLQDNQINHIPLTAFANLRKLERLDISNNQLRMLTQGVFDHLSNLKQLTARNNPWFCDCSIKWVTEWLKYIPSSLNVRGFMCQGPEQVRGMAVRELNMNLLSCPT
B6: ATG9 1-255 (Saccharomyces cerevisiae, UniProt Q12142); sequence looked up; chain MERDEYQLPNSHGKNTFLSRIFGLQSDEVNPSLNSQEMSNFPLPDIERGSSLLHSTNDSREDVDENDLRVPESDQGTSTEEEDEVDEEQVQAYAPQISDGLDGDHQLNSVTSKENVLETEKSNLERLVEGSTDDSVPKVGQLSSEEEEDNEFINNDGFDDDTPLFQKSKIHEFSSKKSNTIEDGKRPLFFRHILQNNRPQRDTQKLFTSSNAIHHDKDKSANNGPRNINGNQKHGTKYFGSATQPRFTGSPLNNT
B7: SRS2 1107-1174 I1152A/L1156A (Saccharomyces cerevisiae, UniProt P12954); N-terminal cysteine BODIPY-FL; chain CHNPDDTTVDNRPIISNAKFLADAAMKKTQKFSKKVKNEPASSQMDAFSQASRAKKKSKLNNGEIIVID
B8: IL18 37-193 F57C/C74S/T81C/C104S/C112S/C163S (Homo sapiens, UniProt Q14116); chain YFGKLESKLSVIRNLNDQVLCIDQGNRPLFEDMTDSDSRDNAPRCIFIISMYKDSQPRGMAVTISVKSEKISTLSSENKIISFKEMNPPDNIKDTKSDIIFFQRSVPGHDNKMQFESSSYEGYFLASEKERDLFKLILKKEDELGDRSIMFTVQNED
B9: dnaN R103C/I305C/C260S/C333S (Escherichia coli, UniProt P0A988); Alexa Fluor 488 label; sequence looked up; chain MKFTVEREHLLKPLQQVSGPLGGRPTLPILGNLLLQVADGTLSLTGTDLEMEMVARVALVQPHEPGATTVPARKFFDICRGLPEGAEIAVQLEGERMLVRSGCSRFSLSTLPAADFPNLDDWQSEVEFTLPQATMKRLIEATQFSMAHQDVRYYLNGMLFETEGEELRTVATDGHRLAVCSMPIGQSLPSHSVIVPRKGVIELMRMLDGGDNPLRVQIGSNNIRAHVGDFIFTSKLVDGRFPDYRRVLPKNPDKHLEAGSDLLKQAFARAAILSNEKFRGVRLYVSENQLKITANNPEQEEAEECLDVTYSGAEMEIGFNVSYVLDVLNALKSENVRMMLTDSVSSVQIEDAASQSAAYVVMPMRL
B10: UPF2 761-1054 (Homo sapiens, UniProt Q9HAU5); sequence looked up; chain EKTVKKKRPPLQEYVRKLLYKDLSKVTTEKVLRQMRKLPWQDQEVKDYVICCMINIWNVKYNSIHCVANLLAGLVLYQEDVGIHVVDGVLEDIRLGMEVNQPKFNQRRISSAKFLGELYNYRMVESAVIFRTLYSFTSFGVNPDGSPSSLDPPEHLFRIRLVCTILDTCGQYFDRGSSKRKLDCFLVYFQRYVWWKKSLEVWTKDHPFPIDIDYMISDTLELLRPKIKLCNSLEESIRQVQDLEREFLIKLGLVNDKDSKDSMTEGENLEEDEEEEEGGAETEEQSGNESEVNE
B11: WWP2 C506A/C822S/C802S/C750S/C666S/C588S/C577S (Homo sapiens, UniProt O00308); N-terminal Cy5 label; sequence looked up; chain MASASSSRAGVALPFEKSQLTLKVVSAKPKVHNRQPRINSYVEVAVDGLPSETKKTGKRIGSSELLWNEIIILNVTAQSHLDLKVWSCHTLRNELLGTASVNLSNVLKNNGGKMENMQLTLNLQTENKGSVVSGGELTIFLDGPTVDLGNVPNGSALTDGSQLPSRDSSGTAVAPENRHQPPSTNCFGGRSRTHRHSGASARTTPATGEQSPGARSRHRQPVKNSGHSGLANGTVNDEPTTATDPEEPSVVGVTSPPAAPLSVTPNPNTTSLPAPATPAEGEEPSTSGTQQLPAAAQAPDALPAGWEQRELPNGRVYYVDHNTKTTTWERPLPPGWEKRTDPRGRFYYVDHNTRTTTWQRPTAEYVRNYEQWQSQRNQLQGAMQHFSQRFLYQSSSASTDHDPLGPLPPGWEKRQDNGRVYYVNHNTRTTQWEDPRTQGMIQEPALPPGWEMKYTSEGVRYFVDHNTRTTTFKDPRPGFESGTKQGSPGAYDRSFRWKYHQFRFLAHSNALPSHVKISVSRQTLFEDSFQQIMNMKPYDLRRRLYIIMRGEEGLDYGGIAREWFFLLSHEVLNPMYSLFEYAGKNNYSLQINPASSINPDHLTYFRFIGRFIAMALYHGKFIDTGFTLPFYKRMLNKRPTLKDLESIDPEFYNSIVWIKENNLEESGLELYFIQDMEILGKVTTHELKEGGESIRVTEENKEEYIMLLTDWRFTRGVEEQTKAFLDGFNEVAPLEWLRYFDEKELELMLSGMQEIDMSDWQKSTIYRHYTKNSKQIQWFWQVVKEMDNEKRIRLLQFVTGTSRLPVGGFAELIGSNGPQKFSIDKVGKETWLPRSHTCFNRLDLPPYKSYEQLREKLLYAIEETEGFGQE
B12: TNFSF4 51-183 (Homo sapiens, UniProt P23510); sequence looked up; chain QVSHRYPRIQSIKVQFTEYKKEKGFILTSQKEDEIMKVQNNSVIINCDGFYLISLKGYFSQEVNISLHYQKDEEPLFQLKKVRSVNSLMVASLTYKDKVYLNVTTDNTSLDDFHVNGGELILIHQNPGEFCVL
B13: RSPO4 32-137 Q65R (Homo sapiens, UniProt Q2I0M5); chain GGNCTGCIICSEENGCSTCQQRLFLFIRREGIRRYGKCLHDCPPGYFGIRGQEVNRCKKCGATCESCFSQDFCIRCKRQFYLYKGKCLPTCPPGTLAHQNTRECQGGGGGSGGGGSGGGGS
Sequence of UniProt Q06671 (whole entry, looked up): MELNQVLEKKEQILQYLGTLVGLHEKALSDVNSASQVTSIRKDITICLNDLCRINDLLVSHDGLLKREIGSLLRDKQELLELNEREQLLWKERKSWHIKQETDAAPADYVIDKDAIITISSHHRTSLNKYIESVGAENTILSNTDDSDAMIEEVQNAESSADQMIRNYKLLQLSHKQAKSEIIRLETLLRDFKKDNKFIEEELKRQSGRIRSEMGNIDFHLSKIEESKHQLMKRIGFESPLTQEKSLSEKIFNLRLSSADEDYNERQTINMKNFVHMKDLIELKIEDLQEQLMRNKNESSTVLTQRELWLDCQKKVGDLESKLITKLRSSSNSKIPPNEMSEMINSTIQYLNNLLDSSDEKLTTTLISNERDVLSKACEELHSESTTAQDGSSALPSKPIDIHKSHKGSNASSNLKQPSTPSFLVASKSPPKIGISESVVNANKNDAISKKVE
Sequence of UniProt Q9WV60 (whole entry, looked up): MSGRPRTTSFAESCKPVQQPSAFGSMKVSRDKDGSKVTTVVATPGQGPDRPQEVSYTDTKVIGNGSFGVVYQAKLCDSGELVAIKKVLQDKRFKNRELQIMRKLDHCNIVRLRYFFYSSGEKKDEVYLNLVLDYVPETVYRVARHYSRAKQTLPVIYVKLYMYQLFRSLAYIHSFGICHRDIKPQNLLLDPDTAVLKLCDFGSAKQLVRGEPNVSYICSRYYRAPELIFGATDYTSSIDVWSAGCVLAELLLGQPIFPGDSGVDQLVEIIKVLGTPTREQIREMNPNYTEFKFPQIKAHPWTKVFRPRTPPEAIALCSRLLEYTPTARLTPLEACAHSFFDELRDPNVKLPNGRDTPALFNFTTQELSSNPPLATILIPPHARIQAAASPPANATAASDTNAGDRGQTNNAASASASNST
Sequence of UniProt Q95XP9 (whole entry, looked up): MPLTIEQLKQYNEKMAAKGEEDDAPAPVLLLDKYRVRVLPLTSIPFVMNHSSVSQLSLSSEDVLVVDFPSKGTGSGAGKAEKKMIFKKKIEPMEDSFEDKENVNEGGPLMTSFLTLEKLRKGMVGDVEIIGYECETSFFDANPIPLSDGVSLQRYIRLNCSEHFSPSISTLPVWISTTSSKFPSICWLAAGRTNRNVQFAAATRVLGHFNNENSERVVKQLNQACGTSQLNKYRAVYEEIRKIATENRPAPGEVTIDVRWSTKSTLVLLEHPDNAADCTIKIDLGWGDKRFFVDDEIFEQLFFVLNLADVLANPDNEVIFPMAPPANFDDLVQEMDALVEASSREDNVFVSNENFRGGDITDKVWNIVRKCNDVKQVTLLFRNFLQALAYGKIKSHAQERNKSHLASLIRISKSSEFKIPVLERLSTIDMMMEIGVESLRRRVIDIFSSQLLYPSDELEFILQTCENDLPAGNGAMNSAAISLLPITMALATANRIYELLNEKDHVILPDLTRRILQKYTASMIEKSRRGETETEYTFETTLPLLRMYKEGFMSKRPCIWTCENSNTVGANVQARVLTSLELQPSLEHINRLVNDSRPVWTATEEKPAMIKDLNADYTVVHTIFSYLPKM
Sequence of UniProt Q71LX4 (whole entry, looked up): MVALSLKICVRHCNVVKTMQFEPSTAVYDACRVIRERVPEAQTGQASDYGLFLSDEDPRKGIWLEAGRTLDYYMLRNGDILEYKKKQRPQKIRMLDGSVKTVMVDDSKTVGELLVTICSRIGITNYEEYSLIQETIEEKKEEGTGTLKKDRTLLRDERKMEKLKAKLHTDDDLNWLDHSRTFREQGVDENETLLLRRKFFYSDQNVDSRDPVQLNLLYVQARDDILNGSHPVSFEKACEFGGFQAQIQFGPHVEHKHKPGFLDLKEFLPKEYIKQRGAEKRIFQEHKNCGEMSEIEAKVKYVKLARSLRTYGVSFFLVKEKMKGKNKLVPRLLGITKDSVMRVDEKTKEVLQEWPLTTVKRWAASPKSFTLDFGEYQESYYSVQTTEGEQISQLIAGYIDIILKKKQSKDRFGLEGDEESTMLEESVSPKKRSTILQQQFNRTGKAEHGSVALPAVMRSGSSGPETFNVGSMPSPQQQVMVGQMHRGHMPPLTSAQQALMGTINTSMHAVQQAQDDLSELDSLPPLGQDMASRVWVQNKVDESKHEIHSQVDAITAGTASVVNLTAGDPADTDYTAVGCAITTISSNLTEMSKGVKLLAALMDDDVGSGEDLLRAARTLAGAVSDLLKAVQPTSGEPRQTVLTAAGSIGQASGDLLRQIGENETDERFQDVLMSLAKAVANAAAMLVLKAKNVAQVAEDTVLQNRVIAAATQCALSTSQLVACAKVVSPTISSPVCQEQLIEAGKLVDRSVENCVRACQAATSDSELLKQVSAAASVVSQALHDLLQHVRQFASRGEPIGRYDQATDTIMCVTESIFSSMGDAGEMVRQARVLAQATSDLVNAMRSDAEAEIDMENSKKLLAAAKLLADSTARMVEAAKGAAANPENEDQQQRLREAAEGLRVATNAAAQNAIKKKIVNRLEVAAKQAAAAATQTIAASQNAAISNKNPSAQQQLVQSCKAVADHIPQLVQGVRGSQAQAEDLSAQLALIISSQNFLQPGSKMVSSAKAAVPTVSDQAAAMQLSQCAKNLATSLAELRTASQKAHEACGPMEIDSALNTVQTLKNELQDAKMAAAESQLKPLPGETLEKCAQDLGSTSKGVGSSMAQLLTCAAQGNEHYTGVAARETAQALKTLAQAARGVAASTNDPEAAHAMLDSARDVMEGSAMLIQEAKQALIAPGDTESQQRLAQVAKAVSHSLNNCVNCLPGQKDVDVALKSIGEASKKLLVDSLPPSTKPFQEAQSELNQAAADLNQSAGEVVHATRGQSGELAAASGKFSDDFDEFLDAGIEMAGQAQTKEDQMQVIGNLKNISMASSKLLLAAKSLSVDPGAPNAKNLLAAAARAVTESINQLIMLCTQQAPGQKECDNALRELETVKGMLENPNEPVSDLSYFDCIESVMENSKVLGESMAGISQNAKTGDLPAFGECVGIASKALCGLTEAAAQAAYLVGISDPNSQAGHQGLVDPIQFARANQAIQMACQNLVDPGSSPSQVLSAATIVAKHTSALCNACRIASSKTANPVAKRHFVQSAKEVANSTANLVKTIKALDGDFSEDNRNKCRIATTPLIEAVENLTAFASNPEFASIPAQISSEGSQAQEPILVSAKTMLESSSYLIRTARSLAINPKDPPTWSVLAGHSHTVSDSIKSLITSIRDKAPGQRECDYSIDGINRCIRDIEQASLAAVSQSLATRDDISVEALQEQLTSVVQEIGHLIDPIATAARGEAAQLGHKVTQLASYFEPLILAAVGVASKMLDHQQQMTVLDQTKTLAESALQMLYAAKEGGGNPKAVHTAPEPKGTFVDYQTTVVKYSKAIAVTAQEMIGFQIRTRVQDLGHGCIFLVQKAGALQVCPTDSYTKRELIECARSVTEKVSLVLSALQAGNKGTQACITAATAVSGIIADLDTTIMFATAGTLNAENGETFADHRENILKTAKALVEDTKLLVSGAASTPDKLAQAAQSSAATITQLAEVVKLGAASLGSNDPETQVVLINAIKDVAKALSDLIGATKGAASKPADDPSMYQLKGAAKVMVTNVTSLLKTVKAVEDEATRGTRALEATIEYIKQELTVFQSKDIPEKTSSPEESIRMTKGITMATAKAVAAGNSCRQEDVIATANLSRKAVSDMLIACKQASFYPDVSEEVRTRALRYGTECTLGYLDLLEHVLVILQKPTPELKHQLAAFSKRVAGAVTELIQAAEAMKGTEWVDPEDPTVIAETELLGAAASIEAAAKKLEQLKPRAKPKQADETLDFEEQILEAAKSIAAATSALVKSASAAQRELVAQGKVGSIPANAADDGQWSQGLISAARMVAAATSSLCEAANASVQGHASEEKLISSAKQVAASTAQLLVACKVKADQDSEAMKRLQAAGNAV
Sequence of UniProt Q8IZJ1 (whole entry, looked up): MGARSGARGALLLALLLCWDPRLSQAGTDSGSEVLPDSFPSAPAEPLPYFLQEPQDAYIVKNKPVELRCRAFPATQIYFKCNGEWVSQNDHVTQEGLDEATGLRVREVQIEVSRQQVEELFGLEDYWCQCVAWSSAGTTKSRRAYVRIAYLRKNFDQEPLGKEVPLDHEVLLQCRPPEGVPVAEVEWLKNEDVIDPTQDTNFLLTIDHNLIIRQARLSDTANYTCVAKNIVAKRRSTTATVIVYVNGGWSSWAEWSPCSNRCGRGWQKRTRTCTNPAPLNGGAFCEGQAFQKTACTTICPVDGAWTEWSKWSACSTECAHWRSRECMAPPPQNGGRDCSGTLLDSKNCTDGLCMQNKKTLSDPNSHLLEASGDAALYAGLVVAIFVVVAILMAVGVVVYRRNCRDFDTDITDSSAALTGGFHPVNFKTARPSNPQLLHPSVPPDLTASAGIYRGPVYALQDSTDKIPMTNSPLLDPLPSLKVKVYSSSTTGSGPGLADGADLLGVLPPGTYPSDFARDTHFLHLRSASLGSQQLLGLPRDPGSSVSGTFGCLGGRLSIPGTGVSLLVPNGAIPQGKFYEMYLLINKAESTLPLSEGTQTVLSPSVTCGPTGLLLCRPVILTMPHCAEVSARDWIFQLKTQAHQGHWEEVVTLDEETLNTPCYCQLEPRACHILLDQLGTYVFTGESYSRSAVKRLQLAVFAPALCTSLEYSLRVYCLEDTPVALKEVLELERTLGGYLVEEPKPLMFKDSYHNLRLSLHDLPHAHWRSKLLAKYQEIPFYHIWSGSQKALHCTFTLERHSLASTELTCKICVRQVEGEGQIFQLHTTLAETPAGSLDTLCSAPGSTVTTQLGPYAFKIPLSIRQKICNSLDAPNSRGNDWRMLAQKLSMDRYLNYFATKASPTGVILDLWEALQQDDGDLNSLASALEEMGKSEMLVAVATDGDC

| Molecule | partner | assay | test system | conditions | Kd |
| --- | --- | --- | --- | --- | --- |
| B1 (P4HB ab fragment) | ITGA2B/ITGB3 complex (Homo sapiens) | SPR |  |  | 8200 nM and 6700 nM |
| B2 (ADRM1 265-388) | UCHL5 E283A/M148A/F149A (Homo sapiens) | ITC |  |  | 17 nM |
| SQELHKLQTYPRTNTGSGTP (salmon calcitonin 13-32 (Salmo salar); N-terminal FITC-Ahx/C-terminal amide) | T1, RAMP2/CALCR extracellular domain fusion 43-143 (Homo sapiens) | fluorescence polarization | peptide |  | 4400 nM |
| B3 (Cid14/Air1 69-684 D298A/D300A) | mtr4 (Schizosaccharomyces pombe, UniProt O14232) | SPR |  |  | 174 ± 19 nM |
| MBL-A mature, hydroxylysine, hydroxyproline in collagen (Rattus norvegicus, UniProt P19999) | C1S fragment (Homo sapiens) | SPR |  | together with: CaCl2 140 mM | 144 nM |
| KLLMIIHDRREFAKFEKEKMNAKWDTGENPIYKSAINNFKNPNYGRKAGL (ITGB1 752-801 Q778G/P786A (Homo sapiens, UniProt P05556-5); sequence looked up) | Tln2 312-408 (Mus musculus, UniProt Q71LX4) | NMR titration |  |  | 369000 nM |
| B4 (spdl-1 C-terminal 362-479) | zwl-1 (Caenorhabditis elegans, UniProt Q95XP9) | SPR |  |  | 116000 ± 5400 nM |
| B5 (Flrt2 35-362) | UNC5B 27-375 (Homo sapiens, UniProt Q8IZJ1) | SPR |  |  | 21000 nM |
| B6 (ATG9 1-255) | ATG23 full-length, dimer (Saccharomyces cerevisiae, UniProt Q06671) | BLI |  |  | 1500 nM |
| B7 (SRS2 1107-1174 I1152A/L1156A) | POL30 1-258 K127G (Saccharomyces cerevisiae, UniProt P15873) | fluorescence polarisation |  | apparent | 18500 nM |
| B8 | IL18BP (Homo sapiens, UniProt O95998) | SPR |  |  | 0.007 nM |
| B9 (dnaN R103C/I305C/C260S/C333S) | clamp loader (Escherichia coli, UniProt P06710-2) | fluorescence titration |  |  | 2 nM |
| B10 (UPF2 761-1054) | UPF3B (Homo sapiens, UniProt Q9BZI7) | BLI |  |  | 36.9 nM |
| B11 | UBE2L3 (Homo sapiens, UniProt P68036) | MST |  |  | 322000 ± 24000 nM |
| WASHC2A (Homo sapiens, UniProt Q641Q2) | SNX27 fragment (Homo sapiens) | ITC |  |  | 4970 ± 1320 nM |
| WGSGGVEPQKFAEELIHRLEAVQRTREAEEKLEERLKRVRMEEEGEDGDPSSGPPGPC (AXIN1 383-435 (Homo sapiens); HiLyte488 label) | Gsk3b 26-383 (Mus musculus, UniProt Q9WV60) | fluorescence polarisation |  |  | 0.74 nM |
| B12 (TNFSF4 51-183) | TNFRSF4 29-170 V53A (Homo sapiens, UniProt P43489) | SPR |  |  | 1800 nM |
| B13 (RSPO4 32-137 Q65R) | LGR4 (Homo sapiens, UniProt Q9BXB1) | whole-cell binding saturation | Fc fusion, HEK293T |  | 0.5 nM |

For quick reference, copied from above:
| Molecule | partner | assay | test system | conditions | Kd |
| --- | --- | --- | --- | --- | --- |
| B9 (dnaN R103C/I305C/C260S/C333S) | clamp loader (Escherichia coli, UniProt P06710-2) | fluorescence titration |  |  | 2 nM |
